Measured values from different studies.
Compare with care: the assays were run in different laboratories.
ERBB2: Receptor tyrosine-protein kinase erbB-2 (ERBB2, Homo sapiens, UniProt P04626)
Chain of UniProt P00811 (whole entry, looked up): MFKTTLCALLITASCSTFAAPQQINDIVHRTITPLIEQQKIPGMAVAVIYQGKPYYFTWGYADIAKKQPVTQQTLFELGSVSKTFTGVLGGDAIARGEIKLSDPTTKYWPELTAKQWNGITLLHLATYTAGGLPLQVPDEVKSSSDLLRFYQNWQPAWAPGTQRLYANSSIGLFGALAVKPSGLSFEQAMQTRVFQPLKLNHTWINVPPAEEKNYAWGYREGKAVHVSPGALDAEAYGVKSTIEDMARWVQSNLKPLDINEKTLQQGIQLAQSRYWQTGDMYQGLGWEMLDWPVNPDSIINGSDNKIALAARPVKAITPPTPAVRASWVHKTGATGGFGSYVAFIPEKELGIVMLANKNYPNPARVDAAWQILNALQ
Chain of UniProt P50552 (whole entry, looked up): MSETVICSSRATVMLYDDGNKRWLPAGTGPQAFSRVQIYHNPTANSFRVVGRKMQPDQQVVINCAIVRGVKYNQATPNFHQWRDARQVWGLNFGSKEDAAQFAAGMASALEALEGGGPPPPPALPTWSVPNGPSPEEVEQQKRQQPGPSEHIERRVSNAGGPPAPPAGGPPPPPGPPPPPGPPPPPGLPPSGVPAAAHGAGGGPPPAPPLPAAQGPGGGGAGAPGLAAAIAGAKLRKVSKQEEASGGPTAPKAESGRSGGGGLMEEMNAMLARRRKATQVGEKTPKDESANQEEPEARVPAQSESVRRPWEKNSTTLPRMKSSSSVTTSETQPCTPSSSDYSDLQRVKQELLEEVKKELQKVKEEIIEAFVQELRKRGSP
Chain of UniProt P0C264 (whole entry, looked up): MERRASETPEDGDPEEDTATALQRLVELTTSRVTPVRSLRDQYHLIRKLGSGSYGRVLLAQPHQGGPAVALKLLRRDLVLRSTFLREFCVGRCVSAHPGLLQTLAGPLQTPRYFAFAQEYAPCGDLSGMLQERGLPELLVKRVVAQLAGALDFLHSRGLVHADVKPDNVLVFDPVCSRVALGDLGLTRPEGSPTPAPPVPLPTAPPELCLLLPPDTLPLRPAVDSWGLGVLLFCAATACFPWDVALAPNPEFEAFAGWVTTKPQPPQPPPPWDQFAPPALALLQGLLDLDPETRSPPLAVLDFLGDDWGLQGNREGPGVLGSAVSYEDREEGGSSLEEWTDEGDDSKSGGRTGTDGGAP
Chain of UniProt P16885 (whole entry, looked up): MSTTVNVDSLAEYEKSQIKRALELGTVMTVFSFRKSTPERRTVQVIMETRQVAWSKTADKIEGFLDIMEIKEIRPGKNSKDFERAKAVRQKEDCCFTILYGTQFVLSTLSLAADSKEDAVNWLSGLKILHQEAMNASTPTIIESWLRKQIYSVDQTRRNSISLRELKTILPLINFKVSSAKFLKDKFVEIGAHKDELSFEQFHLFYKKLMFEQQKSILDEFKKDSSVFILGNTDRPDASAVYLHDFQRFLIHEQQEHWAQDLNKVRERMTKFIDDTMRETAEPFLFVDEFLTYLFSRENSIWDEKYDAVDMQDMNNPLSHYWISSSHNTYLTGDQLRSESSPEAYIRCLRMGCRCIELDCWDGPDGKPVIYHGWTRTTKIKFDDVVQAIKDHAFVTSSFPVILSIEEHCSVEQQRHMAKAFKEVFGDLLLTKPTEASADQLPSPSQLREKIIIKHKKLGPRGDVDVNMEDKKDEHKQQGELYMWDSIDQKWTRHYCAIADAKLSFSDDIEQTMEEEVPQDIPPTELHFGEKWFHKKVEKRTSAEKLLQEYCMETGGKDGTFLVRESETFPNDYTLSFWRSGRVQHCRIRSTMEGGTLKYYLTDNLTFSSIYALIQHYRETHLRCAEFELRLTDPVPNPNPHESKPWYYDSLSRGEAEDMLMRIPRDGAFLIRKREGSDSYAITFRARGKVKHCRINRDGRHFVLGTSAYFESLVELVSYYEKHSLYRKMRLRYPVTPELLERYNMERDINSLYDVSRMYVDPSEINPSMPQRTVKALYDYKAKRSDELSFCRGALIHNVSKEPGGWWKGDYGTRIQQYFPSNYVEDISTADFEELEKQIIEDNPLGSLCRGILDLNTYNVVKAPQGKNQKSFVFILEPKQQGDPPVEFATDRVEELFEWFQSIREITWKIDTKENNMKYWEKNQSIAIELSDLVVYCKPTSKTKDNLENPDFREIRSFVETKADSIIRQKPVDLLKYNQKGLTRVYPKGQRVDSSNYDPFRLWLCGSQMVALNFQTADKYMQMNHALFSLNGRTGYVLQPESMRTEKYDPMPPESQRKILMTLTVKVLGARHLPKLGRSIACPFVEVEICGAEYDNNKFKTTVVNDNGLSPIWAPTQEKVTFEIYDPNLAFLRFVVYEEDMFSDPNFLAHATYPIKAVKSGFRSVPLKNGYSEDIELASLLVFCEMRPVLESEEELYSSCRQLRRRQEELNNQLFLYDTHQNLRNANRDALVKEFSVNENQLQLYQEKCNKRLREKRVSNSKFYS
Chain of UniProt P08510 (whole entry, unmodified, looked up): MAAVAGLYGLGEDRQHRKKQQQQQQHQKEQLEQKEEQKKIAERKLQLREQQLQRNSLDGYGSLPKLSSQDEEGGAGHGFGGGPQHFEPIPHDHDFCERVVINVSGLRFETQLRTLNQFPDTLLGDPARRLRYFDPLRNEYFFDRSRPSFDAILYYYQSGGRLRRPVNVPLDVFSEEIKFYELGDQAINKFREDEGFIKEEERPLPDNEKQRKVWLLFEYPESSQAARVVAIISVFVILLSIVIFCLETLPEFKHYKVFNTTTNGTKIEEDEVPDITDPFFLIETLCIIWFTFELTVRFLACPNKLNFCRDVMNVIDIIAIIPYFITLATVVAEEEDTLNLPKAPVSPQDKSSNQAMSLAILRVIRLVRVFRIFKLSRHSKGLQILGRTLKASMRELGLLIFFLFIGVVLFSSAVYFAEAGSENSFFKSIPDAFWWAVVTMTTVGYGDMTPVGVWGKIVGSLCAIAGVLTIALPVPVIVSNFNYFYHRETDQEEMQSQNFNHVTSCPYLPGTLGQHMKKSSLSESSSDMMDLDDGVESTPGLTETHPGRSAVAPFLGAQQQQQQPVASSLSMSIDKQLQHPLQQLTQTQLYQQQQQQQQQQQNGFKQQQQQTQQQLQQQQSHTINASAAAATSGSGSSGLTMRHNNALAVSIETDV

CSCC[C@H](NC(=O)CNC(=O)[C@H](CCCNC(=N)N)NC(=O)[C@H](C)NC(=O)[C@@H](NC(=O)[C@H](CCC(N)=O)NC(=O)[C@H](Cc1ccc(OP(=O)(O)O)cc1)NC(=O)[C@H](C)NC(=O)[C@H](CS)NC(=O)[C@H](CO)NC(=O)[C@@H](NC(=O)[C@H](CC(C)C)NC(=O)[C@H](CC(=O)O)NC(=O)[C@H](CCCCN)NC(=O)[C@H](CO)NC(=O)[C@H](CO)NC(=O)c1ccc2c(c1)C(=O)OC21c2ccc(N(C)C)cc2Oc2cc(N(C)C)ccc21)C(C)C)C(C)C)C(=O)N[C@@H](CCC(=O)O)C(=O)N[C@@H](CC(=O)O)C(=O)O — Kd (1-phosphatidylinositol 4,5-bisphosphate phosphodiesterase gamma-2, SH2 domain (PLCG2, Homo sapiens, UniProt P16885); binding): 1.42 µM
CC(=O)N[C@@H](CO)C(=O)N[C@@H](Cc1ccccc1)C(=O)N[C@@H](CCC(=O)O)C(=O)N[C@@H](Cc1ccccc1Cl)C(=O)N1CCC[C@]12C=C[C@@H]1CC[C@@H](C(=O)N3CC[C@@H]4C=C[C@H]5CC[C@@H](C(=O)N[C@H](C(=O)N[C@@H](CCC(=O)O)C(=O)N[C@@H](CC(=O)O)C(=O)N[C@@H](CCC(=O)O)C(=O)N[C@@H](CC(C)C)C(N)=O)[C@@H](C)O)N5C(=O)[C@H]43)N1C2=O — Kd (VASP (Homo sapiens, UniProt P50552); binding, ITC): 0.56 µM
C=CCN=S(=O)(c1cc(Cl)cc(Cl)c1)N1C2CCCC1C(C=C)CN(Cc1ccccn1)C2=O (stereo not shown) — Kd (uncharacterized protein, residues 23-253 (Pseudomonas aeruginosa, UniProt Q9HYX8); binding, competitive fluorescence polarization; 30 min, protein 40 nM, added: fluorescent tracer 1 nM): > 40 µM
O=C(N[C@@H]1c2ccccc2C[C@H]1N1CCCC1)c1ccc(-c2ccnc3[nH]ccc23)nc1 — Kd (SBK3 (Homo sapiens, UniProt P0C264); binding, competition with immobilised ligand): 0.105 µM
CSCC[C@@H](N)C(=O)N[C@H](C)C(=O)N[C@H](C)C(=O)N[C@@H](C(=O)N[C@H](C)C(=O)NCC(=O)N[C@H](CC(C)C)C(=O)N[C@H](Cc1ccc(O)cc1)C(=O)NCC(=O)N[C@H](CC(C)C)C(=O)NCC(=O)N[C@H](CCC(=O)O)C(=O)N[C@H](CC(=O)O)C(=O)N[C@H](CCCNC(=N)N)C(=O)N[C@H](CCC(N)=O)C(=O)N[C@H](Cc1c[nH]cn1)C(=O)N[C@H](CCCNC(=N)N)C(=O)N[C@H](CCCCN)C(=O)N[C@H](CCCCN)C(=O)N[C@H](CCC(N)=O)C(N)=O)C(C)C — Kd (Sh, DEL6-46 (Drosophila melanogaster, UniProt P08510); ion current, blocker, inside-out patch clamp; +50 mV): 6.4 µM
CSCC[C@@H]1NC(=O)[C@H]([C@@H](C)O)NC(=O)[C@H](CC(C)C)NC(=O)[C@H](Cc2c[nH]c3ccccc23)NC(=O)CNC(=O)[C@H](C)NC(=O)[C@H](CO)NC(=O)[C@@H](NC(=O)[C@H](CCCCN)NC(=O)[C@H](CC(=O)O)NC(=O)[C@@H](N)CO)CSCCC(=O)N2CN3CN(C2)C(=O)CCSC[C@H](NC1=O)C(=O)N[C@@H](CCC(N)=O)C(=O)N[C@@H](CCCCN)C(=O)N[C@@H](CC(C)C)C(=O)N[C@@H](Cc1c[nH]cn1)C(=O)N[C@@H](CC(C)C)C(=O)N[C@H](C(=O)N[C@@H](C)C(N)=O)CSCCC3=O — Kd (CD274 (Homo sapiens, UniProt Q9NZQ7); binding, SPR): 0.0347 µM
CCCC[C@H](NC(=O)[C@H](CCC(=O)O)NC(=O)[C@H](CCCCN)NC(=O)[C@H](CO)NC(=O)[C@H](Cc1ccccc1)NC(C)=O)C(=O)N[C@@H](CCCNC(=N)N)C(=O)N[C@@H](CC(N)=O)C(=O)N[C@@H](CCCNC(=N)N)C(=O)N[C@@H](Cc1ccc(O)cc1)C(=O)N[C@@H](Cc1c[nH]c2ccccc12)C(=O)N[C@@H](CCCC(=O)NCCN(CC(=O)NCCN(CC(=O)NCCN(CC(=O)NCCN(CC(=O)N[C@@H](CCCNC(=N)N)C(N)=O)C(=O)Cn1cnc2c(=O)[nH]c(N)nc21)C(=O)Cn1ccc(N)nc1=O)C(=O)Cn1ccc(N)nc1=O)C(=O)Cn1cnc2c(=O)[nH]c(N)nc21)C(=O)N[C@@H](CS)C(=O)N[C@@H](C)C(=O)N[C@@H](CC(C)C)C(=O)N[C@@H](CC(=O)O)C(=O)N1CCC[C@H]1C(=O)N[C@@H](CC(N)=O)C(=O)N[C@@H](CC(C)C)C(=O)N[C@H](C(=O)N[C@@H](CC(N)=O)C(=O)N[C@@H](CCC(N)=O)C(=O)N[C@@H](CCC(N)=O)C(=O)N[C@@H](CCCCN)C(=O)N[C@@H](CCCNC(=N)N)C(=O)N[C@@H](C)C(=O)N[C@@H](CCCCNC(=O)CN(CCNC(=O)CN(CCNC(=O)CN(CCNC(=O)CN(CCNC(=O)[C@H](CCCNC(=N)N)NC(C)=O)C(=O)Cn1ccc(N)nc1=O)C(=O)Cn1cnc2c(=O)[nH]c(N)nc21)C(=O)Cn1cnc2c(=O)[nH]c(N)nc21)C(=O)Cn1ccc(N)nc1=O)C(=O)N[C@H](C(=O)N[C@@H](CCCNC(=N)N)C(=O)N[C@@H](CO)C(=O)N[C@H](C(=O)N[C@@H](Cc1ccc(O)cc1)C(=O)N[C@@H](CCC(=O)O)C(=O)N[C@@H](CCC(=O)O)C(=O)NCC(=O)N[C@@H](CCC(=O)O)C(N)=O)[C@@H](C)CC)[C@@H](C)CC)[C@@H](C)O — Kd (ERBB2; binding, SPR; resynthesised library hit): 0.0016 µM
Cc1ccc(O)c(NC(=O)C2CCCC2)c1 — Kd (Beta-lactamase (ampC, Escherichia coli K-12, UniProt P00811)): 4500 µM
CC[C@H](C)[C@H](NC(=O)[C@H](CCC(=O)O)NC(=O)[C@H](CCC(=O)O)NC(=O)[C@H](Cc1ccccc1)NC(=O)[C@H](CCCCN)NC(=O)[C@@H]1CCCN1C(=O)[C@H](Cc1c[nH]cn1)NC(=O)[C@H](CCCCN)NC(=O)[C@H](CO)NC(=O)[C@H](CC(C)C)NC(=O)[C@H](Cc1c[nH]cn1)NC(C)=O)C(=O)N[C@@H](CC(C)C)C(=O)N[C@H](C(=O)N[C@@H](CCCNC(=N)N)C(=O)N[C@@H](CC(C)C)C(=O)N[C@@H](CCCNC(=N)N)C(=O)N[C@@H](CC(C)C)C(=O)N[C@@H](CCC(N)=O)C(N)=O)[C@@H](C)O — Kd (Calmodulin-1, C-lobe (CALM1, Homo sapiens, UniProt P0DP23); ITC; C-lobe, added: 1 mM CaCl2): 5.56 µM
CC[C@H](C)[C@H](NC(=O)[C@H](CCCCNC(=O)CN(CCNC(=O)CN(CCNC(=O)CN(CCNC(=O)CN(CCNC(=O)[C@H](CCCNC(=N)N)NC(C)=O)C(=O)Cn1ccc(N)nc1=O)C(=O)Cn1cnc2c(=O)[nH]c(N)nc21)C(=O)Cn1cnc2c(=O)[nH]c(N)nc21)C(=O)Cn1ccc(N)nc1=O)NC(=O)[C@H](C)NC(=O)[C@H](CCCNC(=N)N)NC(=O)[C@H](CCCCN)NC(=O)[C@H](CCC(N)=O)NC(=O)[C@H](CCC(N)=O)NC(=O)[C@H](CC(N)=O)NC(=O)[C@@H](NC(=O)[C@H](CC(C)C)NC(=O)[C@H](CC(N)=O)NC(=O)[C@@H]1CCCN1C(=O)[C@H](CC(=O)O)NC(=O)[C@H](CC(C)C)NC(=O)[C@H](C)NC(=O)[C@H](C)NC(=O)[C@H](CCC(=O)NCCN(CC(=O)NCCN(CC(=O)NCCN(CC(=O)NCCN(CC(=O)N[C@@H](CCCNC(=N)N)C(N)=O)C(=O)Cn1cnc2c(=O)[nH]c(N)nc21)C(=O)Cn1ccc(N)nc1=O)C(=O)Cn1ccc(N)nc1=O)C(=O)Cn1cnc2c(=O)[nH]c(N)nc21)NC(=O)[C@H](Cc1c[nH]c2ccccc12)NC(=O)[C@H](Cc1ccc(O)cc1)NC(=O)[C@H](CCCNC(=N)N)NC(=O)[C@H](CC(N)=O)NC(=O)[C@H](CCCNC(=N)N)NC(=O)[C@H](CCSC)NC(=O)[C@H](CCC(=O)O)NC(=O)[C@H](CCCCN)NC(=O)[C@H](CO)NC(=O)[C@H](Cc1ccccc1)NC(C)=O)[C@@H](C)O)C(=O)N[C@@H](CCCNC(=N)N)C(=O)N[C@@H](CO)C(=O)N[C@H](C(=O)N[C@@H](Cc1ccc(O)cc1)C(=O)N[C@@H](CCC(=O)O)C(=O)N[C@@H](CCC(=O)O)C(=O)NCC(=O)N[C@@H](CCC(=O)O)C(N)=O)[C@@H](C)CC — Kd (ERBB2; binding, SPR): 0.005 µM

Some of these lines once more:
CCCC[C@H](NC(=O)[C@H](CCC(=O)O)NC(=O)[C@H](CCCCN)NC(=O)[C@H](CO)NC(=O)[C@H](Cc1ccccc1)NC(C)=O)C(=O)N[C@@H](CCCNC(=N)N)C(=O)N[C@@H](CC(N)=O)C(=O)N[C@@H](CCCNC(=N)N)C(=O)N[C@@H](Cc1ccc(O)cc1)C(=O)N[C@@H](Cc1c[nH]c2ccccc12)C(=O)N[C@@H](CCCC(=O)NCCN(CC(=O)NCCN(CC(=O)NCCN(CC(=O)NCCN(CC(=O)N[C@@H](CCCNC(=N)N)C(N)=O)C(=O)Cn1cnc2c(=O)[nH]c(N)nc21)C(=O)Cn1ccc(N)nc1=O)C(=O)Cn1ccc(N)nc1=O)C(=O)Cn1cnc2c(=O)[nH]c(N)nc21)C(=O)N[C@@H](CS)C(=O)N[C@@H](C)C(=O)N[C@@H](CC(C)C)C(=O)N[C@@H](CC(=O)O)C(=O)N1CCC[C@H]1C(=O)N[C@@H](CC(N)=O)C(=O)N[C@@H](CC(C)C)C(=O)N[C@H](C(=O)N[C@@H](CC(N)=O)C(=O)N[C@@H](CCC(N)=O)C(=O)N[C@@H](CCC(N)=O)C(=O)N[C@@H](CCCCN)C(=O)N[C@@H](CCCNC(=N)N)C(=O)N[C@@H](C)C(=O)N[C@@H](CCCCNC(=O)CN(CCNC(=O)CN(CCNC(=O)CN(CCNC(=O)CN(CCNC(=O)[C@H](CCCNC(=N)N)NC(C)=O)C(=O)Cn1ccc(N)nc1=O)C(=O)Cn1cnc2c(=O)[nH]c(N)nc21)C(=O)Cn1cnc2c(=O)[nH]c(N)nc21)C(=O)Cn1ccc(N)nc1=O)C(=O)N[C@H](C(=O)N[C@@H](CCCNC(=N)N)C(=O)N[C@@H](CO)C(=O)N[C@H](C(=O)N[C@@H](Cc1ccc(O)cc1)C(=O)N[C@@H](CCC(=O)O)C(=O)N[C@@H](CCC(=O)O)C(=O)NCC(=O)N[C@@H](CCC(=O)O)C(N)=O)[C@@H](C)CC)[C@@H](C)CC)[C@@H](C)O — Kd (ERBB2; binding, SPR; resynthesised library hit): 0.0016 µM
Cc1ccc(O)c(NC(=O)C2CCCC2)c1 — Kd (Beta-lactamase (ampC, Escherichia coli K-12, UniProt P00811)): 4500 µM
